Experimental data of several laboratories.
Protocols differ between the studies behind these lines. “And” joins repeats or separate records; there may be more than shown. ± gives the spread as reported.

SMILES	target or system	test	system	conditions	how to read	measurement	result
C=CC(=O)Nc1cc(Nc2ncc(C(=O)OC(C)C)c(-c3cn(C)c4ccccc34)n2)c(OC)cc1N(C)CCN(C)C	–	best overall response	patients with EGFR-mutant NSCLC	160 mg once daily, dose escalation and expansion	–	objective response rate	50%
COc1ccc(F)cc1C(=O)NCc1ccc(-c2nn([C@@H](C)C(F)(F)F)c(N)c2C(N)=O)cc1	–	–	CLL/SLL patients	dose not given, prior chemo, CD20, BTK, BCL2 agents	–	overall response rate	69%
CO[C@H]1CC[C@H](N2C(=O)CNc3ncc(-c4ccc(C(C)(C)O)nc4)nc32)CC1	–	flow cytometry	stimulated B cells, human, blood	60 mg single dose, 24 h, median	reference: baseline	pS6RP change from baseline	-3.9%
COc1c(Cl)cccc1Nc1c(-c2ccncc2OC[C@@H]2COCCO2)[nH]c2c1C(=O)NCC2	–	–	human	oral, 20 mg twice daily, 30 weeks	–	tumour shrinkage	53%
CC(=O)NCC(=O)NCC(=O)N[C@H](C(=O)N[C@@H](Cc1ccc(O)cc1)C(=O)N[C@@H](CO)C(=O)N[C@H]1CSSC[C@@H](C(=O)N[C@@H](CCCNC(=N)N)C(=O)N2CCC[C@H]2C(=O)N[C@@H](CCC(N)=O)C(=O)N[C@@H](CCCNC(=N)N)C(=O)NCC(=O)NCCC(=O)N[C@@H](CCCCNC(=O)CN(CC(=O)NCCCC[C@H](NC(=O)CCNC(=O)CNC(=O)[C@H](CCCNC(=N)N)NC(=O)[C@H](CCC(N)=O)NC(=O)[C@@H]2CCCN2C(=O)[C@H](CCCNC(=N)N)NC(=O)[C@@H]2CSSC[C@H](NC(=O)[C@H](CO)NC(=O)[C@H](Cc3ccc(O)cc3)NC(=O)[C@@H](NC(=O)CNC(=O)CNC(C)=O)[C@@H](C)O)C(=O)N[C@@H](Cc3c[nH]cn3)C(=O)N[C@@H](Cc3ccccc3)C(=O)NCC(=O)N[C@@H](C)C(=O)N[C@@H](CC(C)C)C(=O)N[C@@H]([C@@H](C)O)C(=O)N[C@@H](Cc3c[nH]c4ccccc34)C(=O)N[C@@H](C(C)C)C(=O)N2)C(N)=O)C(=O)CCN)C(N)=O)NC(=O)[C@H](C(C)C)NC(=O)[C@H](Cc2c[nH]c3ccccc23)NC(=O)[C@H]([C@@H](C)O)NC(=O)[C@H](CC(C)C)NC(=O)[C@H](C)NC(=O)CNC(=O)[C@H](Cc2ccccc2)NC(=O)[C@H](Cc2c[nH]cn2)NC1=O)[C@@H](C)O	–	–	healthy BALB/c mice	subcutaneous, 0.08 mg/kg, 4 d, single dose	–	haemoglobin	166 g/L
COc1cc(Nc2ncc3c(n2)-c2ccc(Cl)cc2C(c2c(F)cccc2OC)=NC3)ccc1C(=O)O	–	–	mouse, NB-1771 neuroblastoma xenograft	5.2 mg/kg	direction not given	median response score	2
CC(C)c1c(C(=O)Nc2ccccc2)c(-c2ccccc2)c(-c2ccc(F)cc2)n1CC[C@@H](O)C[C@@H](O)CC(=O)O	–	ELISA	cynomolgus monkey, male, plasma	40 mg/kg or 25 mg/kg, day 86	reference: pretreatment	plasma PCSK9 change	297%
C[C@H]1C[C@H]2CSC(N)=N[C@@]2(c2nc(NC(=O)c3ccc(OC(F)F)cn3)cs2)CO1	–	–	healthy adults, fed, plasma	oral, 200 mg single dose, 24 h	reference: baseline, placebo-adjusted	plasma Aβx-40 change	-62.9%
CN[C@@H]1COc2c(S(=O)(=O)NC(=O)Nc3c4c(cc5c3CCC5)CCC4)cnn2C1	–	measured: IL-18	human participants, whole blood ex vivo	450 mg single dose, 72 h, IL-18, circulating, adjusted for, together with: LPS/ATP	reference: baseline	inhibition	17%
CN(C(=O)n1cnc(-c2ccc[n+]([O-])c2)c1)C1CCCCC1	–	–	mice, formalin paw test	1 mg/kg, late phase, together with: anandamide 5 mg/kg i.p.	direction not given	licking time score	4.2
OC[C@H]1O[C@@H](c2ccc(Cl)c(Cc3ccc(O[C@H]4CCOC4)cc3)c2)[C@H](O)[C@@H](O)[C@@H]1O	–	–	Japanese type 1 diabetes patients	2.5 mg, day 7, 168 h	reference: baseline	systolic blood pressure change	2 mmHg
O=C(O)CNC(=O)C(=O)O	OCI-Ly1	–	–	1 µM, 120 h	–	viability	147%
C=C1CC[C@H](OCCCNC(=O)CCOCCOCCOCCOCCOCCOCCOCCOCCOCCOCCOCCOCCOCCOCCOCCOCCOCCOCCOCCOCCOCCOCCOCCOCCOCCOCCOCCOCCOCCOCCOCCOCCOCCOCCOCCOCCNC(=O)CCN2C(=O)CC(SC[C@H](NC(=O)[C@H](CCCNC(=N)N)NC(=O)[C@@H]3CCCN3C(=O)[C@H](CCC(N)=O)NC(=O)[C@H](CC(C)C)NC(=O)[C@H](CCCCN)NC(=O)[C@H](C)NC(=O)[C@@H]3CCCN3C(=O)[C@@H]3CCCN3C(=O)[C@H](CCCCN)NC(=O)[C@H](CCCCN)NC(=O)[C@H](CO)NC(=O)[C@H](CCC(=O)O)NC(=O)[C@H](CCCCN)NC(=O)[C@H](CCCNC(=N)N)NC(=O)[C@H](CCC(N)=O)NC(=O)[C@H](CCC(N)=O)NC(=O)[C@@H](NC(=O)[C@H](CCCNC(=N)N)NC(=O)[C@H](CCC(N)=O)NC(=O)[C@H](Cc3c[nH]cn3)NC(=O)[C@H](CCC(=O)O)NC(=O)[C@@H]3CCCN3C(=O)[C@H](CO)NC(=O)[C@H](CC(C)C)NC(=O)[C@H](Cc3ccccc3)NC(=O)[C@H](CNC(=O)CCCCCCC)NC(=O)[C@H](CO)NC(=O)CN)C(C)C)C(=O)O)C2=O)C/C1=C/C=C1\CCC[C@]2(C)[C@@H]([C@H](C)CCCC(C)(C)O)CC[C@@H]12 (some centres unmarked)	–	–	C57BL/6J mice, LLC tumour-induced cachexia	daily	reference: pair-fed tumour-bearing vehicle	tumour-free body weight	decreased
CC(C)c1cccc2c(-c3ccccc3)cc(-c3ccc(-c4ccc(C(=O)O)cc4)[nH]3)nc12	–	–	CD-1 mouse, male	oral, 5 mg/kg, 7 days dosing, one day after last dose	–	testis weight	0.11 g
c1ccc(-c2n[nH]cc2-c2ccnc3ccccc23)nc1	–	kinase binding, competitor, MIB/MS competition, measured: HRR25	Candida albicans cell lysate	1 µM	reference: DMSO	log2 fold change	0.587
C=CCn1c(=O)c2cnc(Nc3ccc(N4CCN(C)CC4)cc3)nc2n1-c1ccc2c(n1)[C@@](O)(CC)CC2	–	–	CB17 SCID mice, 22Rv1 xenograft	oral, 80 mg/kg, day 19, 5 d on 2 d off, 3 cycles	reference: control	tumour growth inhibition	38.2%
[Cl-].[Cl-].[Pt+2].[Ru+2].c1ccc(-c2nc3ccccc3nc2-c2ccccn2)nc1.c1cnc2c(c1)ccc1cccnc12.c1cnc2c(c1)ccc1cccnc12	–	chloride substitution, UV-vis kinetics	aqueous buffer	pH 7.2, 35 °C, second substitution step, together with: thiourea	–	activation free energy	19.6 ± 0.478 kcal/mol
Cc1c(Cl)c(C)[n+]([O-])c(Cl)c1-c1noc(-c2cc(O)c(O)c([N+](=O)[O-])c2)n1	–	glucuronidation, substrate	human intestinal microsomes	–	–	Vmax	111 ± 44.5 pmol/min/mg protein
CN(C)C(=O)c1cc2cnc(Nc3ccc(N4CCNCC4)cn3)nc2n1C1CCCC1	–	RNA-seq GSEA, measured: HALLMARK_PEROXISOME	MB002 tumour	concentration not given, in vivo	reference: vehicle, direction not given	GSEA enrichment score	0.273
Cc1cc(Nc2ncc(Cl)c(Nc3ccccc3S(=O)(=O)C(C)C)n2)c(OC(C)C)cc1C1CCNCC1	–	–	human	dose not given	–	duration of complete response	10.3 months
CC(C)NCC(O)c1ccc(O)c(O)c1 (centres unmarked)	–	–	ventricular cardiomyocytes, C57BL/6 mouse	dose not given, 0.712 s	–	sarcomere length	1.72 µm

SMILES	target or system	test	system	conditions	how to read	measurement	result
COc1ncc(-c2nc3c(n2C(C)C)[C@H](c2ccc(Cl)cc2)N(c2cc(Cl)cn(C)c2=O)C3=O)c(OC)n1	–	International Working Group criteria	human acute myeloid leukemia patients	oral, 350 to 400 mg, response CR, high-dose, other doses	–	best overall response	8.3%
CCS(=O)(=O)NC(=O)c1cc2ccccc2n1Cc1ccc(Br)c2ccccc12	–	–	mouse, acute hyperuricemia model	dose not given	–	serum uric acid	438 µM and 202 µM and 296 µM and 440 µM and 562 µM and 279 µM and 636 µM
CN(C)C(=O)Oc1cccc([N+](C)(C)C)c1	–	neuromuscular block reversal	rat	dose not given, 21.5 (unit not given), together with: cisatracurium	reference: T1 twitch	train-of-four ratio	98.4
O=C1Nc2cc3[nH]nc(-c4ccncc4)c3cc2CN1Cc1ccccc1	–	RECIST v1.1	human, relapsed or refractory advanced solid tumours	intravenous, 4.8 mg/kg	–	stable disease, best response	67%
c1ccc(-c2cc(-c3ccccc3)n(Cn3ccnc3)n2)cc1	–	–	rat, STZ-nicotinamide diabetic	150 mg/kg, 72 h, full-thickness excision wound	–	wound size	17.4 mm
CCN(Cc1nc2c(N)nc3cc(-c4cc[nH]n4)ccc3c2[nH]1)C(C)=O	–	RECIST v1.1	advanced solid tumour patients	dose not given, monotherapy arm	–	objective response rate	5%
CCCCc1nc2cc(/C=C/C(=O)NO)ccc2n1CCN(CC)CC	OCI-Ly1	–	–	1 µM, 120 h	–	viability	1.96%
C[C@H](Oc1ccc(Br)cc1-c1ccon1)C(=O)O	–	muscle velocity recovery cycle	human, tibialis anterior muscle	200 mg once daily, first response peak at 30 Hz, multiple ascending dose	–	difference from placebo	0.747%
C[C@@H](NC(=O)N1C(=O)[C@H](Cc2ccnc(N)c2)[C@H]1C(=O)O)C1CCCCC1	–	–	human	iv infusion, 2.25 mg/kg/h, 24 h	–	PT AUEC	1660 h·s
O=C(OC(C(F)(F)F)C(F)(F)F)N1CCN(Cc2cccc(Oc3ccccc3)c2)CC1	–	PET	rhesus monkey, pons	intravenous, 0.01 mg/kg, pretreatment blocking, together with: [18F]T-401	–	tracer distribution volume	2.89 mL/cm3
CSCCNc1nc(SCCC(F)(F)F)nc2c1ncn2[C@@H]1O[C@H](COP(=O)(O)OP(=O)(O)C(Cl)(Cl)P(=O)(O)O)[C@@H](O)[C@H]1O	–	ADP-induced platelet aggregation, LTA	human patients, platelet-rich plasma	dose not given, 30 min, together with: ADP 20 µM	–	inhibition	34.1 ± 22.5%
O=C(O)/C=C/c1nccc2c3ccccc3n(Cc3ccc(C4CC4)c4ccccc34)c12	–	–	mouse, acute hyperuricaemia model	oral, 2 mg/kg	–	serum uric acid	391 µM
COCCOc1cnc2ccn([C@H](C)c3nnc4c(F)cc(-c5cnn(C)c5)cn34)c(=O)c2c1	–	–	advanced solid tumours	dose not given	–	median duration of response	202 days
O=C(O)/C=C/c1nccc2c3ccccc3n(Cc3ccc(Br)c4ccccc34)c12	–	–	mouse, acute hyperuricaemia model, serum	oral, 2 mg/kg	reference: vehicle model	serum uric acid decrease	78.8%
N#Cc1ccc2c(-c3ccncc3)c(-c3ccc(F)cc3)nn2c1	–	kinase binding, competitor, MIB/MS competition, measured: ENV7	Candida albicans cell lysate	10 µM	reference: DMSO	log2 fold change	0.819
Cn1cc([C@H]2C[C@H]3CSC(N)=N[C@@]3(c3ccc(F)cc3F)CO2)cn1	–	measured: Aβx-40	Mus musculus wild-type, cerebrospinal fluid	subcutaneous, 10 mg/kg, 13 h	–	Aβ40 level	1.56 ng/mL
CC(C)[C@H](C(=O)Nc1ccc(C(=O)NO)cc1)c1ccccc1	–	volumetric MRI	human, left foramen magnum tumour	dose not given, day 373	reference: baseline	tumour volume change	-4%
N#Cc1ccc2c(c1)[C@H]1CCCN(C(=O)c3ccc4[nH]cnc4c3)[C@H]1C2	–	measured: Triglycerides	human	240 mg once daily, day 28, adjusted mean, together with: metformin	reference: placebo	change from baseline	-32.5 mg/dL
[Mn+2]	–	flow cytometry	CD4-negative PBMC, BALB/c mouse	dose not given	reference: no Mn2+	CD18-low cell fraction	35 and 67.5 and 88 and 29.5 and 81 and 47.1 and 25.4 and 88.6
C[C@H]1O[C@@H](O[C@H]2CC[C@@]3(C)[C@@H](CC[C@]4(C)[C@@H]3C=C[C@]35OC[C@@]6(CCC(C)(C)C[C@H]63)[C@@H](O)C[C@]54C)[C@]2(C)CO)[C@H](O)[C@@H](O[C@@H]2O[C@H](CO)[C@@H](O)[C@H](O)[C@H]2O)[C@H]1O	–	–	pair-fed control mice, no ethanol, plasma	oral, 15 mg/kg/day	–	γ-GT activity	20.3 U/L and 17.7 U/L and 28.6 U/L and 20.7 U/L and 31.1 U/L and 27.6 U/L and 14.9 U/L and 20.9 U/L

For quick reference, copied from above:
SMILES	target or system	test	system	conditions	how to read	measurement	result
CN(C)C(=O)Oc1cccc([N+](C)(C)C)c1	–	neuromuscular block reversal	rat	dose not given, 21.5 (unit not given), together with: cisatracurium	reference: T1 twitch	train-of-four ratio	98.4
O=C1Nc2cc3[nH]nc(-c4ccncc4)c3cc2CN1Cc1ccccc1	–	RECIST v1.1	human, relapsed or refractory advanced solid tumours	intravenous, 4.8 mg/kg	–	stable disease, best response	67%
c1ccc(-c2cc(-c3ccccc3)n(Cn3ccnc3)n2)cc1	–	–	rat, STZ-nicotinamide diabetic	150 mg/kg, 72 h, full-thickness excision wound	–	wound size	17.4 mm
CCN(Cc1nc2c(N)nc3cc(-c4cc[nH]n4)ccc3c2[nH]1)C(C)=O	–	RECIST v1.1	advanced solid tumour patients	dose not given, monotherapy arm	–	objective response rate	5%
CCCCc1nc2cc(/C=C/C(=O)NO)ccc2n1CCN(CC)CC	OCI-Ly1	–	–	1 µM, 120 h	–	viability	1.96%
C[C@H](Oc1ccc(Br)cc1-c1ccon1)C(=O)O	–	muscle velocity recovery cycle	human, tibialis anterior muscle	200 mg once daily, first response peak at 30 Hz, multiple ascending dose	–	difference from placebo	0.747%
